Published values pooled from the literature.
Compare with care: the assays were run in different laboratories.
Organism: Enterococcus faecium

Compound | test | system | conditions | MIC
COc1ccc(CCNc2cc(-c3ccccc3)nc3ncnn23)cc1 | microbial growth, broth dilution | X7501 | – | 64 µM
c1ccc(CCNC2CCCc3c2[nH]c2ccc(C4CCCCC4)cc32)cc1 (centres unmarked) | broth microdilution | BM4147 vancomycin-resistant, cation-adjusted Mueller-Hinton broth | – | 2 mg/L
CN1C(=O)[C@@H]2NC(=O)[C@@H]3NC(=O)[C@@H](c4ccc(O)cc4)NC(=O)[C@H](NC(=O)C(NCc4cccc(F)c4F)c4ccc(O)cc4)Cc4c[nH]c5cc(ccc45)-c4cc3cc(c4O)Oc3ccc(cc3)C[C@H]1C(=O)N[C@@H](C(=O)O)c1ccc(O)c(c1)Oc1ccc2cc1 (some centres unmarked) | – | brain heart infusion medium | – | 16 mg/L
CC1=CC2(C)C(=C(C)C3C4CC(C)CC(C)C4C4Oc5ccc(cc5)CC5(O)NC(=O)C(=C(O)C2C43)C5Nc2ncnc3c2ncn3C2OC(CO)C(O)C2O)C1C (centres unmarked) | microbial growth, broth dilution | ATCC700221 | drug-resistant strain | 6.3 µM
CCCCCCCCCCCCCC(=O)N[C@H](CCN)C(=O)N[C@H](C(=O)N[C@@H](CCN)C(=O)N[C@@H](CC(C)C)C(=O)N[C@H]1CCNC(=O)[C@H](CC(=O)O)NC(=O)[C@H](C(C)C)NC(=O)[C@@H](Cc2ccc(O)cc2)NC(=O)[C@H](CCN)NC(=O)[C@H](CC(C)C)NC(=O)[C@@H](Cc2ccccc2)NC1=O)[C@@H](C)O | broth microdilution | BNCC 186301 | – | 2 mg/L
C[n+]1ccc(/C=C2\Sc3ccccc3N2CCCN2CCCC2)c2ccccc21 | microbial growth, broth dilution | ATCC700221 | drug-resistant strain | 32 mg/L
CNC(CC(C)C)C(=O)NC1C(=O)NC(CC(N)=O)C(=O)NC2C(=O)NC3C(=O)NC(C(=O)NC(C(=O)O)c4cc(O)cc(O)c4-c4cc3ccc4O)C(O)c3ccc(c(Cl)c3)Oc3cc2cc(c3OC2OC(CO)C(O)C(O)C2OC2CC(C)(NCc3ccc(-c4ccc(Cl)cc4)cc3)C(O)C(C)O2)Oc2ccc(cc2Cl)C1O (centres unmarked) | – | ATCC BAA-2317 VanA | −LTA | 2.5 mg/L
CCCCCCCCCCCCCC(=O)N[C@H](CCN)C(=O)N[C@@H]1C(=O)N[C@@H](CCN)C(=O)N[C@@H](CC(C)C)C(=O)N[C@@H](CCN)C(=O)N[C@H](Cc2ccccc2)C(=O)N[C@@H](CC(C)C)C(=O)N[C@@H](CCN)C(=O)N[C@H](Cc2ccc(O)cc2)C(=O)N[C@@H](C(C)C)C(=O)N[C@@H](CC(=O)O)C(=O)O[C@@H]1C | broth microdilution | BNCC 186301 | – | 2 mg/L
CN1C(=O)[C@@H]2NC(=O)[C@@H]3NC(=O)[C@@H](c4ccc(O)cc4)NC(=O)[C@H](NC(=O)C(NCc4ccc(Br)cc4)c4ccc(O)cc4)Cc4c[nH]c5cc(ccc45)-c4cc3cc(c4O)Oc3ccc(cc3)C[C@H]1C(=O)N[C@@H](C(=O)O)c1ccc(O)c(c1)Oc1ccc2cc1 (some centres unmarked) | – | brain heart infusion medium | – | 8 mg/L
CC(C)CCCCCCCCCCCCc1cc(O)cc(O)c1 | microbial growth, broth dilution | – | drug-resistant strain | 32 mg/L
c1cc2c(s1)CCOC21CCN(Cc2ccc3c(c2)OCCO3)CC1 | microbial growth, broth dilution | X7501 | – | 64 µM
CC1=C[C@@H](C)[C@H]2[C@@H]3C(=O)C(Cl)(Cl)C(=O)[C@H](C)C(=O)O[C@@H](C)/C=C/C=C\[C@@H](C)[C@@H]3C=C[C@@H]2C1 | microbial growth, broth dilution | VRE | drug-resistant strain | 0.025 mg/L
CC1=C[C@@]2(C)C(=C(C)[C@H]3[C@@H]4C[C@H](C)C[C@H](C)[C@H]4[C@H]4Oc5ccc(cc5)C[C@]5(O)NC(=O)[C@]6(O[C@H]65)C(=O)[C@@H]2[C@@H]43)[C@H]1C | microbial growth, broth dilution | ATCC700221 | drug-resistant strain | 3.1 µM
CN(C)CCCNC(=O)[C@@H]1NC(=O)[C@@H]2Cc3ccc(cc3)Oc3cc4cc(c3O)-c3ccc5c(c[nH]c5c3)C[C@@H](NC(=O)C(NC(=O)CCCCCN)c3ccc(O)cc3)C(=O)N[C@H](c3ccc(O)cc3)C(=O)N[C@H]4C(=O)N[C@@H](C(=O)N2C)c2ccc(cc2)Oc2cc1ccc2O (some centres unmarked) | – | WCC 0496, VRE-A | – | 1 to 2 mg/L
CCc1ccc([C@@H]2C[C@H](C(F)(F)F)n3ncc(C(=O)NCc4ccc(OC)cc4)c3N2)cc1 | microbial growth, broth dilution | X7501 | – | 64 µM
CN1C(=O)[C@@H]2NC(=O)[C@@H]3NC(=O)[C@@H](c4ccc(O)cc4)NC(=O)[C@H](NC(=O)C(N)c4ccc(O)cc4)Cc4c[nH]c5cc(ccc45)-c4cc3cc(c4O)Oc3ccc(cc3)C[C@H]1C(=O)N[C@@H](C(=O)NCCC[N+](C)(C)C)c1ccc(O)c(c1)Oc1ccc2cc1 (some centres unmarked) | – | brain heart infusion medium | – | 4 mg/L
CCCCCCCCCCCCCCCc1cc(O)cc(O)c1 | microbial growth, broth dilution | – | drug-resistant strain | 64 mg/L
CNc1nc(SC)nc2ccccc12 | microbial growth, broth dilution | X7501 | – | 64 µM
C=C(NC(=O)C(=C)NC(=O)c1csc(C2=NC3c4csc(n4)C4NC(=O)c5csc(n5)C(C(C)(O)C(C)O)NC(=O)C5CSC(=N5)C(=CC)NC(=O)C(C(C)O)NC(=O)c5csc(n5)C3(CC2)NC(=O)C(C)NC(=O)C(=C)NC(=O)C(C(C)CC)NC2C=Cc3c(C(C)O)cc(nc3C2O)C(=O)OC4C)n1)C(N)=O (centres unmarked) | broth microdilution | ATCC 12952 VRE | 18 h, 37 °C | > 5 mg/L
COc1ccc2nc(C)cc(OCC(=O)Nc3cc(C)cc(C)c3)c2c1 | microbial growth, broth dilution | X7501 | – | > 64 µM
CC1CCN(CCCN2/C(=C/c3cc(/C=C/c4c[nH]c5ccccc45)[n+](C)c4ccccc34)Sc3ccccc32)CC1 | microbial growth, broth dilution | ATCC700221 | drug-resistant strain | 8 mg/L
COc1ccc2nc(C)cc(OCC(=O)Nc3ccccc3OC)c2c1 | microbial growth, broth dilution | X7501 | – | > 64 µM
CN1C(=O)[C@@H]2NC(=O)[C@@H]3NC(=O)[C@@H](c4ccc(O)cc4)NC(=O)[C@H](NC(=O)C(NCc4cccc(-c5ccc(F)cc5)c4)c4ccc(O)cc4)Cc4c[nH]c5cc(ccc45)-c4cc3cc(c4O)Oc3ccc(cc3)C[C@H]1C(=O)N[C@@H](C(=O)O)c1ccc(O)c(c1)Oc1ccc2cc1 (some centres unmarked) | – | brain heart infusion medium | – | 16 mg/L

Some of these lines once more:
Compound | test | system | conditions | MIC
CCc1ccc([C@@H]2C[C@H](C(F)(F)F)n3ncc(C(=O)NCc4ccc(OC)cc4)c3N2)cc1 | microbial growth, broth dilution | X7501 | – | 64 µM
